Measured values pooled from the literature.
Compare with care: the assays were run in different laboratories. ± gives the spread as reported.
FFAR4: Free fatty acid receptor 4 (FFAR4, Homo sapiens, UniProt Q5NUL3)
TRPM8: Transient receptor potential cation channel subfamily M member 8 (TRPM8, Homo sapiens, UniProt Q7Z2W7)
PDE1C isoform PDE1C2: Dual specificity calcium/calmodulin-dependent 3',5'-cyclic nucleotide phosphodiesterase 1C, isoform PDE1C2 (PDE1C, Homo sapiens, UniProt Q14123)
GAP50: Glideosome-associated protein 50 (GAP50, Plasmodium falciparum, UniProt Q8I2X3)
NADH dehydrogenase [ubiquinone] iron-sulfur protein 7, mitochondrial/NADH dehydrogenase [ubiquinone] iron-sulfur protein 2, mitochondrial/MT-ND1: NADH dehydrogenase [ubiquinone] iron-sulfur protein 7, mitochondrial/NADH dehydrogenase [ubiquinone] iron-sulfur protein 2, mitochondrial/MT-ND1 (Homo sapiens, UniProt O75251+O75306+P03886)

Compound | target | test | system | setting | scale | quantity | value
CC(C)NCCCC[C@@H]1NC(=O)[C@H](Cc2ccc(O)cc2)NC(=O)[C@H](Cc2ccccc2)NC(=O)CC[C@H](C(=O)N[C@@H](CCCCNC(C)C)C(=O)N[C@@H](CCCCNC(=O)[C@H](CCC(=O)O)NC(=O)[C@H](CCC(=O)O)NC(=O)[C@H](CCC(=O)O)NC(=O)CN2CCN(CC(=O)O)CCN(CC(=O)O)CC2)C(N)=O)NC(=O)CNC(=O)[C@H](Cc2ccc3ccccc3c2)NC(=O)[C@@H](CCCNC(=N)N)NC1=O [fluorine-18 labelled] | C-X-C chemokine receptor type 4 (CXCR4, Homo sapiens, UniProt P61073) | radioligand cell uptake | MM.1S cells | concentration not given | – | total cellular uptake | 2.46 ± 0.13%
O=Nc1c(NCCc2ccccc2)[nH]c(=O)[nH]c1=O | FFAR4 | antagonist, β-arrestin recruitment | CHO cells | 10 µM, with: 4 µM TUG-891 | – | inhibition | 19 ± 8%
C=CC(=O)N1CCC(COCC(=O)N2CCN(c3nc(-c4cnc(N)nc4C(F)F)nc(N4CCOC[C@@H]4C)n3)CC2)CC1 | Serine/threonine-protein kinase PAK 2 (PAK2, Homo sapiens, UniProt Q13177) | KINOMEscan | – | 1 µM | – | remaining binding | 97%
COC(=O)c1cn(C)c2ccc(-c3cccnc3)cc12 | Nuclear receptor subfamily 4 group A member 2, LBD (Homo sapiens, UniProt P43354) | reporter gene, Gal4 hybrid reporter | – | 10 µM | baseline: vehicle | activation | 0.32 fold
O=c1nc(SCc2cc(F)cc(C(F)(F)F)c2)nc(SCc2ccc3sccc3c2)[nH]1 | DNA topoisomerase 2-alpha (TOP2A, Homo sapiens, UniProt P11388) | DNA relaxation | – | 15.6 µM | – | mean relaxed DNA | 47.5%
O=C(NC1CCC1)c1ccc2nc(-c3cccc(NS(=O)(=O)NCCN4CCCCC4)c3)cn2c1 | Protein ENL (MLLT1, Homo sapiens, UniProt Q03111) | degrader, immunoblot, item: MLLT1 | – | 10 µM, 48 h | baseline: DMSO control | protein level | 36%
Cn1nc2c3c(cccc31)C(=O)c1ccccc1-2 | TRPM8 | antagonist | HEK293 | 5 µM | baseline: control | remaining activity | 98.2 ± 7.65%
CO[C@H](C(=O)N1Cc2c(-c3ccc(C(=O)N4CCCc5ccccc54)cc3)cnn2C[C@H]1C(C)C)c1cnn(C)c1 (single isomer, unassigned) | E3 ubiquitin-protein ligase parkin (PRKN, Human, UniProt O60260) | nanoDSF | – | 200 µM | baseline: DMSO | ΔTm | -1.3 °C
CCN1CCN(c2cc(N3CCN(CC)CC3)nc(NCCNc3ccnc4cc(Cl)ccc34)n2)CC1 | Nuclear receptor subfamily 4 group A member 2, LBD; with RXRα (Homo sapiens, UniProt P43354) | reporter gene, full-length heterodimer DR5 reporter | – | 20 µM | baseline: vehicle | activation | 1.68 ± 0.5 fold
O=C(COP(=O)(O)O)[C@@H](O)[C@H](O)[C@H](O)COP(=O)(O)O | PGM1 (Homo sapiens, UniProt P36871) | thermal proteome profiling | HepG2 cell lysate | concentration not given, 57 over 37 °C, mean | baseline: compound over control | thermal stability ratio | 4.29
CC(=O)N[C@H]1[C@H](Oc2ccc([N+](=O)[O-])cc2)O[C@H](CO)[C@@H](O)[C@@H]1O | beta-N-acetylglucosaminidase, soil Bacillus sp. | substrate, p-nitrophenol release | – | pH 6.1, 37 °C, Sephadex G-200 purified | – | Km | 170 ± 10 µM
O=c1cc(N2CCOCC2)oc2c1ccc1ccccc12 | TRPM8 | antagonist | HEK293 | 5 µM | baseline: control | remaining activity | 101 ± 9.31%
CCC(N)C(=O)O (racemic) | uncharacterized protein (Pelagibacter ubique, UniProt Q4FKZ8) | differential scanning fluorimetry | Candidatus Pelagibacter ubique | in-house screen | – | thermal shift | 2.52 °C
COc1c(Nc2cc(C(F)(F)F)cc(C(F)(F)F)c2)c(=O)c1=O | CD209 antigen (CD209, Homo sapiens, UniProt Q9NNX6) | binding, grating-coupled interferometry | mannose-PEG3 chip | 2 h, no Tris | – | Hill slope | 1.8
O=C1O/C(=C\c2cc(F)ccc2OCCN2CCOCC2)c2cc(Cc3cccc(F)c3)[nH]c(=O)c21 | PDE1C isoform PDE1C2 | enzyme activity, inhibitor | – | with: 3H-cGMP substrate | – | binding free energy | -11.1 kcal/mol
O=c1cc(NCCc2cccc(F)c2)[nH]c(=O)[nH]1 | FFAR4 | agonist, β-arrestin recruitment | CHO cells | 10 µM | – | activation | 0%
COc1ccc(F)cc1C(=O)NCc1ccc(-c2nn([C@@H](C)C(F)(F)F)c(N)c2C(N)=O)cc1 | Tyrosine-protein kinase ABL2 (ABL2, Homo sapiens, UniProt P42684) | kinase activity, inhibitor, HotSpot radiometric | – | 100 nM, with: ATP 10 µM | – | remaining activity | 88.2 ± 0.2%
C[C@H](CCC(C)(C)O)[C@H]1CC[C@H]2[C@@H]3CC=C4C[C@@](C)(O)CC[C@]4(C)[C@H]3CC[C@]12C | Glutamate NMDA receptor; GRIN1/GRIN2B (GRIN1/GRIN2B, Homo sapiens, UniProt Q05586+Q13224, A652C) | two-electrode voltage clamp | Xenopus oocytes | concentration not given, with PAM, from MTSEA potentiation, with: MTSEA | – | open probability | 0.07 ± 0.004
O=C(Nc1ncnc2c1ncn2[C@@H]1O[C@@H]2COP(=O)(O)OC2C1O)c1ccccc1 (stereo in doubt) | anti-cAMP antibody | antibody binding, competitive cAMP EIA | – | concentration not given, acetylated samples | baseline: EC50 cAMP over EC50 cpd, higher = stronger binding | relative binding affinity | 0.006
Cc1ccc2oc(-c3cc(NC(=O)Cc4ccccc4)ccc3Cl)nc2c1 | GAP50 | binding, surface plasmon resonance | – | 1:1 binding model | – | koff | 3.67 s⁻¹

Compound | target | test | system | setting | scale | quantity | value
NC(=O)NOCCCCCCCCCCCCCCCC[P+](c1ccccc1)(c1ccccc1)c1ccccc1.O=C([O-])C(F)(F)F | NADH dehydrogenase [ubiquinone] iron-sulfur protein 7, mitochondrial/NADH dehydrogenase [ubiquinone] iron-sulfur protein 2, mitochondrial/MT-ND1 | complex I-dependent respiration, Seahorse XF96 | HCT-116 | 0.6 µM, 24 h | baseline: control | oxygen consumption rate | 59.7 ± 6.65%
CN(CCCCCCNC(=O)COc1ccc(C2CCC(=O)NC2=O)cc1)Cc1cn(Cc2ccc(C(=O)NO)cc2)c2ccccc12.O=C(O)C(F)(F)F (stereo not shown) | Polyamine deacetylase HDAC10 (HDAC10, Homo sapiens, UniProt Q969S8) | degrader, western blot | MM1.S | 5 µM, 24 h | – | degradation | 56%
O=c1cc(NCCc2ccccc2)[nH]c(=O)[nH]1 | FFAR4 | agonist, β-arrestin recruitment | CHO cells | 10 µM | baseline: 30 µM TUG-891 | agonist effect | 2 ± 1%
CC1=C(/C=C/C(C)=C/C=C/C(C)=C/C=C/C=C(C)/C=C/C=C(C)/C=C/C2=C(C)CCCC2(C)C)C(C)(C)CCC1 | Beta-lactoglobulin (LGB, Bos taurus, UniProt P02754) | intrinsic fluorescence | – | 303 K | – | quenching rate constant | 1.14e+12 ± 1.3e+11 M⁻¹ s⁻¹
CCCCCCCCNc1cc(=O)[nH]c(=O)n1C | FFAR4 | antagonist, β-arrestin recruitment | CHO cells | 10 µM, with: 4 µM TUG-891 | – | inhibition | 25 ± 9%
O=C(NC1CC1)c1ccc(N2CCOc3ccc(Cl)cc32)s1 | GAP50 | binding, surface plasmon resonance | – | 1:1 binding model | – | koff | 0.992 s⁻¹
CN(C)c1ccc2nc3ccc(=[N+](C)C)cc-3sc2c1 | Microtubule-associated protein tau, 2N4R isoform (MAPT, Homo sapiens, UniProt P10636, del597-597) | ThT fluorescence | – | 0.1-fold over protein, with: tau ΔK280 10 µM | baseline: untreated | fibrillization half-time | 56 ± 7%
CC1=NNC(=S)NC(=O)C1/N=N/c1ccc(S(N)(=O)=O)cc1 (stereo not shown) | Alpha-amylase (Bos taurus, UniProt Q3MHH8) | enzyme activity, inhibitor, glucose oxidase | – | 100 µg/mL, with: dextrin | – | inhibition | 15.5%
N#Cc1c(NC(=O)c2cccc3ccccc23)sc2c1CCCC2 | TRPM8 | antagonist | HEK293 | 5 µM | baseline: control | remaining activity | 76.9 ± 7.79%
Cc1cc2c(c(=O)[nH]1)C(=O)O/C2=C\c1cc(Cl)ccc1OC(C)C | PDE1C isoform PDE1C2 | enzyme activity, inhibitor | – | with: 3H-cGMP substrate | – | binding free energy | -10 kcal/mol
NC(=O)NO | NADH dehydrogenase [ubiquinone] iron-sulfur protein 7, mitochondrial/NADH dehydrogenase [ubiquinone] iron-sulfur protein 2, mitochondrial/MT-ND1 | complex I-dependent respiration, Seahorse XF96 | HCT-116 | 30 µM, 24 h | baseline: control | oxygen consumption rate | 77 ± 1.79%
Nc1ncnc2c1ncn2[C@@H]1O[C@H](COP(=O)(O)CP(=O)(O)OP(=O)(O)O)[C@@H](O)[C@H]1O | P2X purinoceptor 1 (P2RX1, Homo sapiens, UniProt P51575, D170A) | calcium influx | – | 10 nM | baseline: ionomycin response | calcium influx | 1.99%
CC[C@@H]1[C@H](F)C(=O)N[C@@H]1COc1nccc2cc(C(N)=O)c(OC)cc12 | Ribosomal protein S6 kinase alpha-1 (RPS6KA1, Homo sapiens, UniProt Q15418) | ATP probe binding, KiNativ profiling, item: domain 2 Lys2 site | THP-1 cell lysate | 0.04 mM | – | inhibition | -5.9%
O=C(COc1ccc(Cl)cc1Cl)Nc1cc(C2CC2)nn1CC(F)(F)F | Kir3.1/Kir3.2 (Homo sapiens, UniProt P48051+P48549) | thallium flux, activator | HEK293 | – | baseline: standard compound | Emax | 74%
NCc1ccc(C(F)(F)F)cc1 | Amine oxidase [flavin-containing] A (Maoa, Rattus norvegicus, UniProt P21396) | substrate | rat | pH 9.0, α,α-protio substrate | – | kcat | 13.5 ± 0.183 s⁻¹
O=c1cc(NCc2ccccc2)[nH]c(=O)[nH]1 | FFAR4 | agonist, β-arrestin recruitment | CHO cells | 10 µM | – | activation | 0%
Cc1ccc2c(c1C)NC(=O)[C@]21NN=C(c2ccccc2)S1 | GAP50 | binding, surface plasmon resonance | – | 1:1 binding model | – | kon | 3200 M⁻¹ s⁻¹
O=C(c1ccccc1)c1ccc(CNCCCN2C(=O)c3ccccc3C2=O)cc1 | Sigma intracellular receptor 2 (TMEM97, Homo sapiens, UniProt Q5BJF2) | radioligand binding | RT-4 cell membranes | – | baseline: sigma1 Ki over sigma2 Ki | Ki ratio | < 0.03
O=c1cc(NCCCCCCO)[nH]c(=O)[nH]1 | FFAR4 | agonist, β-arrestin recruitment | CHO cells | 10 µM | – | activation | 1%
C[C@H](CCCOc1cccc(CO)c1)[C@H]1CC[C@H]2[C@@H]3CC=C4C[C@@H](O)CC[C@]4(C)[C@H]3CC[C@]12C | Oxysterols receptor LXR-beta (NR1H2, Homo sapiens, UniProt P55055) | reporter gene, GAL4-LBD transactivation | HepG2 | – | – | efficacy | 13.9 ± 0.6%

Repeated from above:
Compound | target | test | system | setting | scale | quantity | value
O=C1O/C(=C\c2cc(F)ccc2OCCN2CCOCC2)c2cc(Cc3cccc(F)c3)[nH]c(=O)c21 | PDE1C isoform PDE1C2 | enzyme activity, inhibitor | – | with: 3H-cGMP substrate | – | binding free energy | -11.1 kcal/mol
CCC(N)C(=O)O (racemic) | uncharacterized protein (Pelagibacter ubique, UniProt Q4FKZ8) | differential scanning fluorimetry | Candidatus Pelagibacter ubique | in-house screen | – | thermal shift | 2.52 °C
O=Nc1c(NCCc2ccccc2)[nH]c(=O)[nH]c1=O | FFAR4 | antagonist, β-arrestin recruitment | CHO cells | 10 µM, with: 4 µM TUG-891 | – | inhibition | 19 ± 8%
COC(=O)c1cn(C)c2ccc(-c3cccnc3)cc12 | Nuclear receptor subfamily 4 group A member 2, LBD (Homo sapiens, UniProt P43354) | reporter gene, Gal4 hybrid reporter | – | 10 µM | baseline: vehicle | activation | 0.32 fold
Cn1nc2c3c(cccc31)C(=O)c1ccccc1-2 | TRPM8 | antagonist | HEK293 | 5 µM | baseline: control | remaining activity | 98.2 ± 7.65%
